# Measurements from different studies.
# Every numbered part comes from another study and shows a few of its results, in no order. “And” joins repeats or separate records; there may be more than shown.
# UniProt P35372, sequence (whole entry, looked up): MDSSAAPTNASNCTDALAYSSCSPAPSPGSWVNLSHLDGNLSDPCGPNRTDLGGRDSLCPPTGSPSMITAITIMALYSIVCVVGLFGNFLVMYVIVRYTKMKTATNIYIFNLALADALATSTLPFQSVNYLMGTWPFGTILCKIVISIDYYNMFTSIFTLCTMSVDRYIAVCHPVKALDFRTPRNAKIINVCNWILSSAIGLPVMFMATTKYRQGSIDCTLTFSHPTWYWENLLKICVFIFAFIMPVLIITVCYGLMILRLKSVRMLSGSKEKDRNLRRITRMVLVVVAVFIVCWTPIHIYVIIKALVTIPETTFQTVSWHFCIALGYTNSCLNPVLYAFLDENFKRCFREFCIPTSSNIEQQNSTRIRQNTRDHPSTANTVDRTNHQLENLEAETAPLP
# UniProt P41143, sequence (whole entry, looked up): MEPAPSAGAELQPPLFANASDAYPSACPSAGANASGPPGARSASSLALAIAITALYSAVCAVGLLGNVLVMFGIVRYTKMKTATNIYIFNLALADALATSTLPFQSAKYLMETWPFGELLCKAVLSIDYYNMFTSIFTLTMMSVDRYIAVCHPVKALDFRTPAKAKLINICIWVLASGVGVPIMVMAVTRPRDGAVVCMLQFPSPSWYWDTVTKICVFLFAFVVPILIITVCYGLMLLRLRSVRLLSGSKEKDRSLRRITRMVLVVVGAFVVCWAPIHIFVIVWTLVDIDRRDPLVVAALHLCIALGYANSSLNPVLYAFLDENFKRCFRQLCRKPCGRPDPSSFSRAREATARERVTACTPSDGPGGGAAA
# UniProt P11229, sequence (whole entry, looked up): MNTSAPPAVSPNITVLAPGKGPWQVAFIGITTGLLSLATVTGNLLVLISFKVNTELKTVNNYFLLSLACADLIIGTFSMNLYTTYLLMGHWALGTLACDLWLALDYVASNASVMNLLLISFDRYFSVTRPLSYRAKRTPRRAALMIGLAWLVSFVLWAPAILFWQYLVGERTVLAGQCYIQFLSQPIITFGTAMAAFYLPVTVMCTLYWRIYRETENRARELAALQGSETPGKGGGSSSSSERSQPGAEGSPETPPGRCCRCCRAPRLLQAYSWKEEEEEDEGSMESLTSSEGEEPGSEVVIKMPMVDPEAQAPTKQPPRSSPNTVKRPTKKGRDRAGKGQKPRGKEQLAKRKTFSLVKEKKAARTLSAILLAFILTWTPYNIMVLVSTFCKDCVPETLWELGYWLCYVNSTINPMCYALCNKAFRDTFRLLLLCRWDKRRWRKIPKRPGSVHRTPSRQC
# UniProt P21918, sequence (whole entry, looked up): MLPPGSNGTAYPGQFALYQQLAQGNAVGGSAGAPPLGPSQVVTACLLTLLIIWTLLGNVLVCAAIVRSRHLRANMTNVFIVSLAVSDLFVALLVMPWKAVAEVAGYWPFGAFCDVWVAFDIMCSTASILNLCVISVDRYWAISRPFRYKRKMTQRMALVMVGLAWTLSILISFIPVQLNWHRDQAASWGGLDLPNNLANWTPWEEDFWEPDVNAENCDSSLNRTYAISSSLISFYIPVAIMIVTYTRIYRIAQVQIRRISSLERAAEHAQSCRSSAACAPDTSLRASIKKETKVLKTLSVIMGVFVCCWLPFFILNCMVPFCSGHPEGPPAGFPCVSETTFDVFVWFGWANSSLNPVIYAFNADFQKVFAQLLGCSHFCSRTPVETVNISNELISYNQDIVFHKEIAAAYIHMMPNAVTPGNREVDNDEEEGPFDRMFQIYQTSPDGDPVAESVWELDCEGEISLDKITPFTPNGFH
# UniProt P41145, sequence (whole entry, looked up): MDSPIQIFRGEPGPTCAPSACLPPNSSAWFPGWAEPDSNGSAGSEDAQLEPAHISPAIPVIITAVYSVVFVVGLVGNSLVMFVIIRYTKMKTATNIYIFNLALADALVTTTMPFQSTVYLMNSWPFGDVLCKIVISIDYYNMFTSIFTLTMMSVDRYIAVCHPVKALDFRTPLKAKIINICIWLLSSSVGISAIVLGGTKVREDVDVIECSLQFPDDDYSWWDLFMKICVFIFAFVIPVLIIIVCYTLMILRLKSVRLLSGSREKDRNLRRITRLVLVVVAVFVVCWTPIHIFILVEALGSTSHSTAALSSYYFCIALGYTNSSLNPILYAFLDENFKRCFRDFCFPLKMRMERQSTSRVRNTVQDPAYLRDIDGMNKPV
# UniProt P20309, sequence (whole entry, looked up): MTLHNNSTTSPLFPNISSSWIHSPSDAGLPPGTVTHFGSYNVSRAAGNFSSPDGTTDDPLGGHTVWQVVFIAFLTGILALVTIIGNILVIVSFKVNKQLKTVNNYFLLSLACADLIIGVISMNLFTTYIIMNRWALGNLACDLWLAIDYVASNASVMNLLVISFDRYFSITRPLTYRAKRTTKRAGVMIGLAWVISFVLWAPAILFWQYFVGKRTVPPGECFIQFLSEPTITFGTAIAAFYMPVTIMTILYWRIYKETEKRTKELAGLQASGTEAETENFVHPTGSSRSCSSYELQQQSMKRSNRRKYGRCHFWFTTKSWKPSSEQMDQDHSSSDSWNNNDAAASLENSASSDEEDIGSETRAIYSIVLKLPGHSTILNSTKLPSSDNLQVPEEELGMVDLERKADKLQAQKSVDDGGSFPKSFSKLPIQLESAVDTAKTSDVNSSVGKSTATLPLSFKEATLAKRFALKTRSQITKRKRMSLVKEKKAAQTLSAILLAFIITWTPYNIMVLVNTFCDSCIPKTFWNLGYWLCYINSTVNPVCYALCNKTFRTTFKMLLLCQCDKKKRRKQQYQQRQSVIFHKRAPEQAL
# UniProt P08908, sequence (whole entry, looked up): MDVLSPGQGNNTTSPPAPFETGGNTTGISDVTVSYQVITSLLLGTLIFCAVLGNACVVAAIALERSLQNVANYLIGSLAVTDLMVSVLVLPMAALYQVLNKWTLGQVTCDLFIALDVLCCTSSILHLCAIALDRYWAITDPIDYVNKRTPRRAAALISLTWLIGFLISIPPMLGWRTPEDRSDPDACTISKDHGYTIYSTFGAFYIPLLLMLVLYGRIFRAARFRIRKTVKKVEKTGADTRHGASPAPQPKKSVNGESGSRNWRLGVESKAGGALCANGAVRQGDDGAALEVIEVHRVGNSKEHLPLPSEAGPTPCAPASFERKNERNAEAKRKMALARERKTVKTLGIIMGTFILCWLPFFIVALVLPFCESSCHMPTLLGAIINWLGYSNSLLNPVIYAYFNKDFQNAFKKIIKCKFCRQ

# Sample 1
# Target: Eukaryotic initiation factor 4A-I (EIF4A1, Homo sapiens, UniProt P60842)
# UniProt P60842, sequence (whole entry, looked up): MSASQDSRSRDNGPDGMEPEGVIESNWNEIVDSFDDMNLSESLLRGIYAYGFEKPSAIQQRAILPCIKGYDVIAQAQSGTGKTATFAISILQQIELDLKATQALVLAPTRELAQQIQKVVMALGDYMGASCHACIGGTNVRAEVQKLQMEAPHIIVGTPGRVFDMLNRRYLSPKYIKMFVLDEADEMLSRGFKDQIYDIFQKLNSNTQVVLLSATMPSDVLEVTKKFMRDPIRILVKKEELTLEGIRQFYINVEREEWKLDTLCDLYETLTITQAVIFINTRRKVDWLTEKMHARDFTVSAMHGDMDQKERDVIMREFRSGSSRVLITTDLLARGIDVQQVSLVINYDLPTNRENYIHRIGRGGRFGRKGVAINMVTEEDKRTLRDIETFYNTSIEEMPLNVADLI
# Effect on: RNA clamping
# Technique: fluorescence polarization
# Concentration: concentration not given
# Setting: mean of two replicates
# Added: FAM-labelled poly r(AG)8 RNA
SMILES,fluorescence polarization change
COc1ccc([C@@]23Oc4cc(OC)cc(OC)c4[C@]2(O)c2nc(-c4ccc(Br)cc4)[nH]c(=O)c2[C@H]3c2ccccc2)cc1,1.9 mP
COc1ccc([C@@]23Oc4cc(OC)cc(OC)c4[C@]2(O)c2nc(C(C)C)[nH]c(=O)c2[C@H]3c2ccccc2)cc1,35.1 mP
COC(=O)[C@@H]1[C@@H](O)[C@@]2(O)c3c(OC)cc(OC)cc3O[C@@]2(c2ccc(Br)cc2)[C@H]1c1ccccc1,24.5 mP
COc1ccc([C@@]23Oc4cc(OC)cc(OC)c4[C@]2(O)[C@@H](O)C[C@H]3c2ccccc2)cc1,21.5 mP
COCc1nc2c(c(=O)[nH]1)[C@@H](c1ccccc1)[C@]1(c3ccc(OC)cc3)Oc3cc(OC)cc(OC)c3[C@]21O,62.6 mP
COC(=O)[C@@H]1[C@@H](c2ccccc2)[C@]2(c3ccc(OC)cc3)Oc3cc(OC)cc(OC)c3[C@@]23N=C(C)N[C@@]13O,91.5 mP and 77.5 mP
COC(=O)[C@@H]1[C@@H](c2ccccc2)[C@]2(c3ccc(OC)cc3)Oc3cc(OC)cc(OC)c3[C@@]23OC(c2ccc(Cl)nc2)=N[C@@]13O,13.3 mP
COc1ccc([C@@]23Oc4cc(OC)cc(OC)c4[C@@]24NC(C)=NC4=C(C=O)[C@H]3c2ccccc2)cc1,44.6 mP
COc1ccc([C@@]23Oc4cc(OC)cc(OC)c4[C@]2(O)c2nc(-c4cnccn4)[nH]c(=O)c2[C@H]3c2ccccc2)cc1,37.7 mP
COc1ccc([C@]23Oc4cc(OC)cc(OC)c4[C@](O)([C@H](c4ccccc4)[C@H]2C(=O)NCCCCNC(=O)c2ccccc2)[C@H]3O)cc1,-1.4 mP
COc1ccc([C@@]23Oc4cc(OC)cc(OC)c4[C@@]24NC(C)=N[C@@]4(O)[C@H](C(=O)N(C)OC)[C@H]3c2ccccc2)cc1,117 mP
COc1ccc([C@@]23Oc4cc(OC)cc(OC)c4[C@]2(O)c2nc(-c4ccc(Cl)cc4)[nH]c(=O)c2[C@H]3c2ccccc2)cc1,6.7 mP

# Sample 2
# Target: Bromodomain-containing protein 4, BD1 (BRD4, Homo sapiens, UniProt O60885)
# Effect on: acetyl-histone H4 peptide binding
# Technique: AlphaScreen displacement
# Concentration: 50 µM
SMILES,inhibition [%]
Cc1cccc(NC=C2C(=O)NC(=O)N(c3ccc(F)cc3)C2=O)c1,16.9
COc1ccc(N2C(=O)NC(=O)C(=CNc3cccc(C)c3)C2=O)cc1,10
COc1cccc(N2C(=O)NC(=O)C(=CNc3cccc(Cl)c3)C2=O)c1,18.6
Cc1cccc(N2C(=O)NC(=O)C(=CNc3ccc(Cl)cc3)C2=O)c1,11.2
O=C1Nc2ccccc2C1=Cc1c[nH]cn1,19.9
O=C1NC(=O)c2c1c1c3ccccc3n3c1c1c2c2ccccc2n1[C@@H]1CCC3O1,-15.8
N#CC(C#N)=Cc1ccc(O)c(O)c1,18.5
Cc1cccc(NC=C2C(=O)NC(=O)N(c3ccccc3)C2=O)c1,21.1

# Sample 3
# SMILES: C[C@H](c1ccc(F)cc1)N(Cc1ccc(Cl)c(C(=O)O)c1)C(=O)c1cnc2ccccc2c1
# Effect on: cell-free assay
# Concentration: 10 µM
target,inhibition [%]
"5-hydroxytryptamine receptor 1A (HTR1A, Homo sapiens, UniProt P08908)",-3.79
"Mu-type opioid receptor (OPRM1, Homo sapiens, UniProt P35372)",0.07
"Delta-type opioid receptor (OPRD1, Homo sapiens, UniProt P41143)",12.4
"Kappa-type opioid receptor (OPRK1, Homo sapiens, UniProt P41145)",-0.42
"Muscarinic acetylcholine receptor M3 (CHRM3, Homo sapiens, UniProt P20309)",39
"Muscarinic acetylcholine receptor M1 (CHRM1, Homo sapiens, UniProt P11229)",14.5
"D(1B) dopamine receptor (DRD5, Homo sapiens, UniProt P21918)",12.8

# Sample 4
# Target: Synaptic vesicular amine transporter (SLC18A2, Homo sapiens, UniProt Q05940)
# UniProt Q05940, sequence (whole entry, looked up): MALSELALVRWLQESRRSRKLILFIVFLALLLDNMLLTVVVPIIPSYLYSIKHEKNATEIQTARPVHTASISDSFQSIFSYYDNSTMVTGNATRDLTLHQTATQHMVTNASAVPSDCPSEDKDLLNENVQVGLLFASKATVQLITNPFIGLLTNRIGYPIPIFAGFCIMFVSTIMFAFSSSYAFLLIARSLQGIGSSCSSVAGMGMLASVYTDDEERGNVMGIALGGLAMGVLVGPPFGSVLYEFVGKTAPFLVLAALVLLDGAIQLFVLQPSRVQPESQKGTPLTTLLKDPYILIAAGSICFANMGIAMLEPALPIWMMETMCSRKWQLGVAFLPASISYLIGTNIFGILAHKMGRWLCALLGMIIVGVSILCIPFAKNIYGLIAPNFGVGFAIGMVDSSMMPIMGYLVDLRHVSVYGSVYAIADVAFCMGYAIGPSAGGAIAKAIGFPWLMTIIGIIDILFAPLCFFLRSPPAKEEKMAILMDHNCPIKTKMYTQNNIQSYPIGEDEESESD
# Mode: inhibitor
# Setting: literature data
Structure (SMILES),IC50 [µM]
O=C1Nc2ccc(Cl)cc2C(c2ccccc2Cl)=NC1O (centres unmarked),> 10
CNC1(c2ccccc2Cl)CCCCC1=O (centres unmarked),> 10
CN(C)C(=O)C(CCN1CCC(O)(c2ccc(Cl)cc2)CC1)(c1ccccc1)c1ccccc1,0.158
CC(C)[N+](C)(CCC(C(N)=O)(c1ccccc1)c1ccccc1)C(C)C,> 10
COc1ccc([C@@]23CCC(=O)C[C@@H]2N(C)CC3)cc1OC,> 10
CN1CC[C@]23c4c5ccc(O)c4O[C@H]2[C@@H](O)C=C[C@H]3[C@H]1C5,> 10
CCC1(c2ccccc2)C(=O)NC(=O)NC1=O,> 10
COc1ccc2c3c1O[C@H]1C(=O)CC[C@H]4[C@@H](C2)N(C)CC[C@]314,> 10
CN1CCC(C(=O)c2cccc(NC(=O)c3c(F)cc(F)cc3F)n2)CC1,> 10
C[C@@H](O)[C@@H]1NC(=O)[C@H](CCCCN)NC(=O)[C@@H](Cc2c[nH]c3ccccc23)NC(=O)[C@H](Cc2ccccc2)NC(=O)[C@@H](NC(=O)[C@H](N)Cc2ccccc2)CSSC[C@@H](C(=O)N[C@H](CO)[C@@H](C)O)NC1=O,> 10
NCC1(CC(=O)O)CCCCC1,> 10

# For quick reference, copied from above (sample 4):
Structure (SMILES),IC50 [µM]
NCC1(CC(=O)O)CCCCC1,> 10
COc1ccc([C@@]23CCC(=O)C[C@@H]2N(C)CC3)cc1OC,> 10
CC(C)[N+](C)(CCC(C(N)=O)(c1ccccc1)c1ccccc1)C(C)C,> 10
CN1CC[C@]23c4c5ccc(O)c4O[C@H]2[C@@H](O)C=C[C@H]3[C@H]1C5,> 10
